Experimental data from different studies.
Protocols differ between the studies behind these lines.
Target: Serine/threonine-protein kinase BRSK1 (BRSK1, Homo sapiens, UniProt Q8TDC3)

For `Nc1ncc(-c2cc(-c3cnn(CC(F)(F)F)c3)ncc2F)nc1C(=O)NC1CNCC(F)C1` (stereo not drawn), the remaining activity was 64.9% (enzyme activity; 1 µM; reference: DMSO control).
`CC(C)=CC1OC(C)(C)C2C=C3C(=O)C(Cl)=CC(O)C3C3C(O)C4OC4C(=O)C132` (stereo not drawn) gave a remaining binding of 97% (cell-free assay, competition with immobilised ligand; 10 µM).
With `CNC(=O)C1CCN(c2cc(C)c(F)cc2NC(=O)c2ccc(-c3cc(O)ccc3C)c(C)c2)CC1` the remaining binding was 83% (binding, competition with immobilised ligand; 1 µM).
`CCN1CCN(Cc2ccc(C(=O)Nc3ccc(C)c(NCc4cnc5[nH]ccc5c4OC)c3)cc2C(F)(F)F)CC1` has a remaining binding of 100% (binding, competition with immobilised ligand; 1 µM).
With `O=C=[N][Ru-4]123([n]4c5ccc(O)cc5c5c6c(c7cc(F)c[n+]1c7c54)C(=O)NC6=O)[S+]1CC[S+]2CC[S+]3CC1` (stereo not drawn) the remaining activity was 92% (enzyme activity; 100 nM, human enzyme, added: 10 µM ATP; reference: untreated).
`COc1cc(Nc2nc(C)cc(-c3cnn4nc(OC)ccc34)n2)cc(C(F)(F)F)c1` gave a remaining activity of 86% (inhibitor; 1 µM; reference: control).
`Nc1ncc2c(n1)-c1c([nH]c3ccc(C4=CCOCC4)cc13)CCC2` gave a remaining binding of 100% (binding, competition with immobilised ligand; 1 µM).
The inhibition of `NC(=O)[C@@H](O)C[C@H]1CCc2sc3ncnc(O[C@H]4CC[C@H](N5CCOCC5)CC4)c3c21` is reported as 7% (enzyme activity, inhibitor; 10 µM).
For `COc1c(OCCCN2CCOCC2)ccc2c1N=C(NC(=O)c1cnc(N)nc1)N1CCN=C21`, the remaining activity was 97% (kinase activity, inhibitor; 1 µM; reference: untreated control).
`Cc1cccc(O[C@H]2CCC[C@@H](C(C)CNCc3ccncc3)C2)c1` (relative stereo) gave an inhibition of -2% (enzyme activity, inhibitor; 1 µM).
Under “activity vs control”, `O=C(Cc1ccc(OCc2ccccc2)cc1)NC1(C(=O)O)CCN(C(=O)c2ccc(-c3cccc(Cl)c3)cc2)CC1` is recorded as 133% (enzyme activity, inhibitor; 10 µM).
`CN1CC[C@@H](COc2cnc(C#N)cc2-c2ccn3nc(NC(=O)C4CC4)cc3c2)C1` has an inhibition of 7% (enzyme activity, inhibitor; 1 µM).
`COc1c(Cl)cccc1Nc1c(-c2ccncc2C#C[C@@]2(C)CCCN2C(=O)/C=C/CN(C)C)[nH]c2c1C(=O)NCC2` gave a remaining binding of 95% (binding, competition with immobilised ligand; 3 µM).
The inhibition of `C=CC(=O)Nc1cccc(-c2cnc3[nH]cc(C(=O)NC(C)(C)C)c3n2)c1` is reported as 13% (enzyme activity, inhibitor; 0.1 µM).
The inhibition of `C=CC(=O)N1Cc2nc(-c3cc(-c4cc(Cl)cnc4Cl)c(F)cc3F)n(-c3ccncn3)c2C1` is reported as 9% (cell-free assay, inhibitor; 1 µM).

Some of these lines once more:
For `Nc1ncc(-c2cc(-c3cnn(CC(F)(F)F)c3)ncc2F)nc1C(=O)NC1CNCC(F)C1` (stereo not drawn), the remaining activity was 64.9% (enzyme activity; 1 µM; reference: DMSO control).
